Experimental data gathered from unrelated publications.
Compare with care: the assays were run in different laboratories. Several values in a cell are separate wells, animals, samples, runs or records.
Route: oral

CCOP(=O)(CC(=O)Nc1ccc(S(=O)(=O)N(CC(N)=O)c2ccc(N(CC(N)=O)S(=O)(=O)c3ccc(OC)cc3)c3ccccc23)cc1)OCC
bioavailability (male Wistar rat, plasma; 28 mg/kg, single dose): 4.01%

CC12CC3CC(C)(C1)CC(NC(=O)Nc1ccc(C(=O)N4CCC[C@H](C(N)=O)C4)cc1F)(C3)C2
bioavailability (Sprague-Dawley rat, plasma; 50 mg/kg): 28.6%

COc1ccc(COc2c(OC)ccc3c2C[C@@H](C(=O)O)N(c2nc4ccc(F)cc4o2)C3)cn1
bioavailability (male Sprague-Dawley rat, plasma; 10 mg/kg): 45%

N#Cc1cnc2cc(OCC3CCNCC3)c(F)cc2c1Nc1cc(F)c(OCc2cccc(Cl)n2)cc1Cl
bioavailability (male Sprague-Dawley rat, plasma; 300 mg/kg): 100%

O=C(N[C@@H](CC1CCCCC1)C(=O)N[C@@H](C[C@H]1CCNC1=O)C(=O)C(=O)NC1CC1)OCc1cccc(Cl)c1
bioavailability (female Sprague-Dawley rat, plasma; 10 mg/kg): 20%

Nc1ccc(-c2ccc3ncc4c(=O)[nH]c(=O)n(-c5cccc(C(F)(F)F)c5)c4c3n2)cn1
bioavailability (male Sprague-Dawley rat, plasma; 4 mg/kg): 12.2%

COc1ccc(COc2c(OC)ccc3c2C[C@@H](C(=O)O)N(c2nc4ccc(F)cc4o2)C3)cc1
bioavailability (male Sprague-Dawley rat, plasma; 10 mg/kg): 22%

Cc1cc(N2CCC(C#N)(C3(C)CC3)C2=O)cc(C(=O)NCc2cc(F)cc(-c3cnn(C)c3)c2)n1 (racemic)
bioavailability (male Sprague-Dawley rat, plasma; 3 mg/kg): 37%

OC1(C(F)(F)F)CCN(c2nc(Nc3ccnc(C(F)(F)F)c3)nc(-c3cccc(C(F)(F)F)n3)n2)C1 (stereo not drawn)
bioavailability (Sprague-Dawley rat, plasma; 5 mg/kg): 113%

COC(=O)c1ccc2c(c1)NC(=O)/C2=C(\Nc1ccc2c(c1)CCN2C(=O)CN1CCOCC1)c1ccccc1
bioavailability (Sprague-Dawley rat, plasma; 10 mg/kg): 68%

Cc1cc(N)nc(CC2CNCC2OCCNCC(F)(F)c2cccc(F)c2)c1 (stereo not drawn)
bioavailability (rat, plasma): 22.2% and 22%

Cc1ccc(OCC(=O)N(Cc2cccs2)c2ccn[nH]2)cc1
bioavailability (male Sprague-Dawley rat, plasma; 30 mg/kg, single dose): 0.09%

NC(COc1ccccc1C(F)(F)F)c1ccccc1 (stereo not drawn)
bioavailability (male Sprague-Dawley rat, serum; 25 mg/kg): 38%

C#Cc1cccc(Nc2ncnc3cc(OC)c(OCCCN4CCOCC4)cc23)c1
bioavailability (Sprague-Dawley rat, plasma; 40 mg/kg): 86.2%

O=C(C1CCN(c2nnnn2-c2ccccc2)CC1)N1CCCc2ccccc21
bioavailability (male Sprague-Dawley rat, plasma; 5 mg/kg): < 1%

A few entries again:
Cc1cc(N)nc(CC2CNCC2OCCNCC(F)(F)c2cccc(F)c2)c1 (stereo not drawn)
bioavailability (rat, plasma): 22.2% and 22%

CCOP(=O)(CC(=O)Nc1ccc(S(=O)(=O)N(CC(N)=O)c2ccc(N(CC(N)=O)S(=O)(=O)c3ccc(OC)cc3)c3ccccc23)cc1)OCC
bioavailability (male Wistar rat, plasma; 28 mg/kg, single dose): 4.01%
